Results from different studies.
Numbers after ± are the reported error.

| SMILES | test system | setting | Tmax |
| --- | --- | --- | --- |
| CC(C)(Sc1cc[n+]([O-])cc1-c1ccc(C#N)c2ccccc12)C(=O)OC1OC(C(=O)O)C(O)C(O)C1O (stereo not drawn) | plasma | oral, 15 mg, normal renal function, fasted | 3.5 h |
| COc1cc(C)c(Cc2ccc(O)cc2)cc1[C@@H]1S[C@H](CO)[C@@H](O)[C@H](O)[C@H]1O | Japanese T2DM patients, plasma | 0.5 mg luseogliflozin, day 7, once daily | 2.07 ± 0.932 h |
| O=C(CCc1ccc(CNC(C(=O)OC2CCCC2)C2CCCCC2)cn1)NO (stereo not drawn) | healthy volunteers | oral, single dose | ~0.5 h |
| Cc1ccccc1-c1cc(N2CCNCC2)ncc1N(C)C(=O)C(C)(C)c1cc(C(F)(F)F)cc(C(F)(F)F)c1 | healthy volunteers, plasma | oral, dose not given | 9.85 to 15.3 h |
| CC(=O)N[C@H](CC(=O)O)C(=O)N[C@H](Cc1c[nH]c2ccccc12)C(=O)N[C@H](Cc1ccccc1)C(=O)N[C@H](CCCCN)C(=O)N[C@H](C)C(=O)N[C@H](Cc1ccccc1)C(=O)N[C@H](Cc1ccc(O)cc1)C(=O)N[C@H](CC(=O)O)C(=O)N[C@H](CCCCN)C(=O)N[C@@H](C(=O)N[C@H](C)C(=O)N[C@H](CCC(=O)O)C(=O)N[C@H](CCCCN)C(=O)N[C@H](Cc1ccccc1)C(=O)N[C@H](CCCCN)C(=O)N[C@H](CCC(=O)O)C(=O)N[C@H](C)C(=O)N[C@H](Cc1ccccc1)C(N)=O)C(C)C | statin-treated high-risk CHD patients, plasma | oral, 100 mg daily, day 13, median, detected subjects | 2 h |
| CN1CCN(c2cc(-c3ccccc3CO)c(N(C)C(=O)C(C)(C)c3cc(C(F)(F)F)cc(C(F)(F)F)c3)cn2)CC1 | cancer patients, plasma | oral, dose not given, netupitant-palonosetron single dose, range of means | 12.3 to 16 h |
| CC(C)(Sc1ccncc1-c1ccc(C#N)c2ccccc12)C(=O)OC1OC(C(=O)O)C(O)C(O)C1O (stereo not drawn) | plasma | oral, 15 mg, mild renal impairment, fasted | 3 h |
| Cc1ccccc1-c1cc(N2CC[N+](C)([O-])CC2)ncc1N(C)C(=O)C(C)(C)c1cc(C(F)(F)F)cc(C(F)(F)F)c1 | cancer patients, plasma | oral, dose not given, netupitant-palonosetron single dose, range of means | 3.88 to 4.45 h |
| Cc1ccc([C@@H]2O[C@H](CO)[C@@H](O)[C@H](O)[C@H]2O)cc1Cc1ccc(-c2ccc(F)cc2)s1 | albino rabbit, plasma | oral or sublingual | 2.91 ± 0.35 h |

For quick reference, copied from above:
| SMILES | test system | setting | Tmax |
| --- | --- | --- | --- |
| CC(C)(Sc1ccncc1-c1ccc(C#N)c2ccccc12)C(=O)OC1OC(C(=O)O)C(O)C(O)C1O (stereo not drawn) | plasma | oral, 15 mg, mild renal impairment, fasted | 3 h |
